Results from different studies.
Each numbered part is a random draw from the data of one study; scales do not carry over between parts. Substitutions count along the parent as printed.

Study 1 — target: CCND3, cyclin fold, Cln2 fusion (human); technique: yeast growth competition, sequencing; medium: yeast; notes: weak parent motif; baseline: not given; direction: higher = stronger binding
Starting sequence: PKMYT1 docking peptide (human); SFEPRNLLSLFED; partner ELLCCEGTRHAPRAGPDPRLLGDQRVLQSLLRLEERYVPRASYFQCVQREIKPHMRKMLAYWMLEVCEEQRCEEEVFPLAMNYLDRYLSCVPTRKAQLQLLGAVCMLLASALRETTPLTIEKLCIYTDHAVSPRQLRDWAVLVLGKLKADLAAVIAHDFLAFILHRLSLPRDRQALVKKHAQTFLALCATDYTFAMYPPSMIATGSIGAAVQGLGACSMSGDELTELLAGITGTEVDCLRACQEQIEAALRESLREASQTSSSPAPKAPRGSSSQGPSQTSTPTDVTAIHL
Change | normalised enrichment score
SFEPRNRLSLFED [L7R] | 0.127
SFEPRNLQSLFED [L8Q] | 0.0866
SFECRNLLSLFED [P4C] | 0.11
SFFPRNLLSLFED [E3F] | 0.116
SFEPRNLASLFED [L8A] | 0.149
SFEPRNLKSLFED [L8K] | 0.201
SFEPRNLLSLFYD [E12Y] | 0.139
SFEPRGLLSLFED [N6G] | 0.173
SPEPRNLLSLFED [F2P] | 0.0859
VFEPRNLLSLFED [S1V] | 0.164
SFEPRCLLSLFED [N6C] | 0.13
SFEPRNLYSLFED [L8Y] | 0.143
SFEPRNLLSLGED [F11G] | 0.0685
SFEPRNLCSLFED [L8C] | 0.124
SFELRNLLSLFED [P4L] | 0.0614
SSEPRNLLSLFED [F2S] | 0.035
SFEPLNLLSLFED [R5L] | 0.0702
SFPPRNLLSLFED [E3P] | 0.113
SFEARNLLSLFED [P4A] | 0.0796
SFEPRNLLSCFED [L10C] | 0.0384
SFEPNNLLSLFED [R5N] | 0.109

Study 2 — technique: protein binding microarray; molecule type: double-stranded DNA, one strand shown; medium: in vitro; tested at: not given; baseline: not given; direction: higher = stronger binding
Target: Histone acetyltransferase KAT6A, winged helix 1, GST fusion (KAT6A, Homo sapiens, UniProt Q92794, residues 1-85)
Notes: 8-mer, flanks averaged, mean of 2 arrays, mostly near background
Construct (chain): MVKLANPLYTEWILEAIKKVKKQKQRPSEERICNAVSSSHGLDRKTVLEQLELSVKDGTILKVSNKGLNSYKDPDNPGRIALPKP
Strand | E-score
GTTTCCGA | 0.0915
AAGACAGA | -0.0599
CCCTAAGC | -0.0367
AGTAGCAC | -0.103
ATGATAAA | -0.00115
ATCACAGA | -0.247
CGGTGGGA | 0.0705
AGAGCTAG | -0.0911
CATATTAC | -0.00115
GCCGTTCA | 0.274
CAAAACCA | -0.0122
TCAGATCA | -0.136
GATGGAAC | -0.224
CAAGTCCA | -0.231
GCTTGGAC | -0.0979
GGCGTCGA | 0.0863
ATAGCGCG | 0.385
AAATCGCG | 0.199
ATATTACA | 0.0531
AACTAATA | 0.0373
CTCTTTCC | -0.0205
AGCTCTTG | -0.264
GTTTGCAA | -0.16
ACGAGGTA | -0.0648
ATCCCCGC | 0.37

Study 3 — technique: RNA Bind-n-Seq; molecule type: RNA; medium: in vitro; tested at: 365 nM; baseline: no-protein control; direction: higher = stronger binding
Target: RNA binding protein fox-1 homolog 2, RRM domain, GST-SBP tag (RBFOX2, Homo sapiens, UniProt O43251-10, residues 100-194)
Notes: natural RNA segment, single round, ends assumed
Constant ends, left off below: GGGAGUUCUACAGUCCGACGAUC … UGGAAUUCUCGGGUGCCAA
Construct (chain): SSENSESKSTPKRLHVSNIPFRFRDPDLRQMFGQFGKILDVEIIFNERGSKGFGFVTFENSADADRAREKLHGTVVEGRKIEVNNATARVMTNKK
Strand | RBNS enrichment (R)
GUAUUUGCUUUUUUGUUUUGGCUGAAAUUCUCCUGGAGGUCGGUAGGUUCAGCCAAGGUUUUAUAAGGCUGAUGUCAAUUUCUGUGUUGCCAAGCUCCAAGCCCCAUCUU | 0.65
AGGCGUGUUGCUGUGUAUCCCGGGCAUCCAUGGGUUCCAACUGCCACUGCCCCAGUCUUGGCCAGAGAUACCCCUCCUGCCUGACUGGAAGCUGCACAUCUGCCCACUGA | 0.252
UCCAAGACUGUACCAAGCCAAGCUCUGAUAAGCUUCCAUCUUCCAUGGCUGGUAGACUGAACUGUCCCAGAAUCACUAGCUUGAGGUAGAGGAGGGGAGGGCAGAGUCAC | 0.464
UAGAGUUUUACAUUGUUGAUGAUAGAUUAACAAUAAAGUGAUGUUCUGGUGGAGGUAGACUGAAAUUUUUUUAAUUCAUGUUUUUCAUUUGAUACUUUUAAUUUACACUU | 1.29
UUUGCCUUAACUCCACUGCUGUGGUUGUUCCUUGGACCUGACCGAUGCUCAUACAAUAAUCUCAAGAGCCCUGUCUGUUUCGUAAUAGUAACUACUUCUCAUGAACACUA | 0.34
GGGGAUCCAAGCUGCUUGAGGGGGUCAACCUUGGACCAAAGUUGCCUUAAGCCUGUGGUAAAAGGGCUUCAGGGAAGGUAAGUGGGCCACCUGCUGGAAGCUGCCAGCUG | 1.43
ACCGCAGCCUGUCAGCCAACAUUGCCUUGCAUUUGUACCUUAUUGAUCUUUGCCCAUGGAAGUCUCAAAGAUCUUUCGUUGGUUGUUUCUCUGAGCUUUGUUACUGAAAU | 1.92
AUAAGGCACACUGUAGUGCUUAAUAUGUGUAAGGACUUCCUCUUUAAAUUUGGUACCAGUAACUUAGUGACACAUAAUGACAACCAAAAUAUUUGAAAGCACUUAAGCAC | 0.424

Study 4 — technique: RNAcompete; molecule type: RNA; medium: in vitro; tested at: 20 nM; notes: 7-mer, probes averaged, single round; baseline: mean of 7-mers; direction: higher = stronger binding
Target: PABPC1L2, full length, GST fusion (mouse, UniProt A0ABA7IW68)
Target sequence (chain): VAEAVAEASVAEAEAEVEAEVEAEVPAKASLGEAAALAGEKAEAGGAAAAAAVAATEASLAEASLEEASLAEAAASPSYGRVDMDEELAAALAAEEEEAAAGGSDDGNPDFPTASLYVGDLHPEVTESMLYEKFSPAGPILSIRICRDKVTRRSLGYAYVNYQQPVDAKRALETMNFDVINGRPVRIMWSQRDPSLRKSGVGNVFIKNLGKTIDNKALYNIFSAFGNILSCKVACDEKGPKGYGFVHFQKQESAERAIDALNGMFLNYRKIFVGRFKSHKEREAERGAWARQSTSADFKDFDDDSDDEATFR
Strand | 7-mer Z-score
UAAGCCU | -0.273
CGUCGUG | -0.367
UCAGCCA | -0.179
AUGUAGU | -0.215
GUUUCAC | -0.425
UACGGCA | 0.0497
ACAAAUU | 1.22
UUGUAUG | -0.286
CCAUGGC | -0.266
GUGCUGG | -0.00108
AAUCGGU | -0.0573
UCGAAGA | -0.0428
CGGAGAG | 0.0279
GGGUACG | -0.0301
AGCGGGU | 0.456
GUGUUCA | -0.344
GCGUCCA | -0.2
GUUGUAU | -0.344
UCUCCCA | -0.3
AAGAAUG | 0.447
GCGCCGG | -0.269
AGAUCAG | -0.211
AGACAAU | 0.0261
GGAUGGG | 0.468
AAUAUUG | 0.267

Study 5 — target: NFE2L2, bZIP domain (human); technique: DHFR protein complementation; medium: yeast; baseline: wild-type JUN-FOS pair; direction: higher = stronger binding
Notes: single substitutions, most at no-binding floor
Starting sequence: JUN, bZIP domain (human); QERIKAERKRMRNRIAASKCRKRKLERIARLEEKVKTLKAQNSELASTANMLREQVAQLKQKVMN; partner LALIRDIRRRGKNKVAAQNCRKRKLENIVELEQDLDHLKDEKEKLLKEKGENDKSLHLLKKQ
Change | binding fitness [natural log]
E44S | -1.5
Q41T | -1.36
S47Q | -0.986
R30A | -1.29
S47M | -1.26
A57H | -1.1
A49Q | -1.53
T48F | -1.28
I28C | -1.54
A49F | -1.32
K39W | -1.52
R30E | -1.36
Q55M | -1.47

Excerpt of the above (study 1):
Change | normalised enrichment score
SFECRNLLSLFED [P4C] | 0.11
SFEPRCLLSLFED [N6C] | 0.13
SFEPRNLLSLFYD [E12Y] | 0.139
SFEPRNLLSLGED [F11G] | 0.0685
SFEPRNLKSLFED [L8K] | 0.201
SFELRNLLSLFED [P4L] | 0.0614
SFEPRNLLSCFED [L10C] | 0.0384
SFFPRNLLSLFED [E3F] | 0.116
